Measured values collected from several papers.
Each line is one published result; not all experiments were run side by side. “And” joins repeats or separate records; there may be more than shown. ± gives the spread as reported.
SIRT1: NAD-dependent protein deacetylase sirtuin-1 (SIRT1, Homo sapiens, UniProt Q96EB6)
UniProt Q96EB6, sequence (whole entry, looked up): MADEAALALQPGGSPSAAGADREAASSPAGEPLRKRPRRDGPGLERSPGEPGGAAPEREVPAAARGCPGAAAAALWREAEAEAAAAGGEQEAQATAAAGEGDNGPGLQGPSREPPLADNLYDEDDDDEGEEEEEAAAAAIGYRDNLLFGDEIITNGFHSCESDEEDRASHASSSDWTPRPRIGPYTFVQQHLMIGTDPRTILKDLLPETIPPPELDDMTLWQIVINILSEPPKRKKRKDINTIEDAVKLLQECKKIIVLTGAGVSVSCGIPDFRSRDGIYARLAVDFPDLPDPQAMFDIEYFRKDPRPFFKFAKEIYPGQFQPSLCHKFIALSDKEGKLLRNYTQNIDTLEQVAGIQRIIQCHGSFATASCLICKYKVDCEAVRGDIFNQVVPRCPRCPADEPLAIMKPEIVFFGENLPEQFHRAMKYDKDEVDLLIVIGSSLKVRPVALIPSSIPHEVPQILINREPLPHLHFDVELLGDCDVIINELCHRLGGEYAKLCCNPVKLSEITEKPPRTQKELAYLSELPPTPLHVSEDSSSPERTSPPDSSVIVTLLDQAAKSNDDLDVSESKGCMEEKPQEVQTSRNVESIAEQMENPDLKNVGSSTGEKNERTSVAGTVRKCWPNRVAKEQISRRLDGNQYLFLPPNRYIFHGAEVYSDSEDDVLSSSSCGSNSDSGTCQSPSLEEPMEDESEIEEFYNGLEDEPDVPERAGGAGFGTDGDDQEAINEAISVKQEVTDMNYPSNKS
AMY2: Pancreatic alpha-amylase (AMY2, Sus scrofa, UniProt P00690)
UniProt P00690, sequence (whole entry, looked up): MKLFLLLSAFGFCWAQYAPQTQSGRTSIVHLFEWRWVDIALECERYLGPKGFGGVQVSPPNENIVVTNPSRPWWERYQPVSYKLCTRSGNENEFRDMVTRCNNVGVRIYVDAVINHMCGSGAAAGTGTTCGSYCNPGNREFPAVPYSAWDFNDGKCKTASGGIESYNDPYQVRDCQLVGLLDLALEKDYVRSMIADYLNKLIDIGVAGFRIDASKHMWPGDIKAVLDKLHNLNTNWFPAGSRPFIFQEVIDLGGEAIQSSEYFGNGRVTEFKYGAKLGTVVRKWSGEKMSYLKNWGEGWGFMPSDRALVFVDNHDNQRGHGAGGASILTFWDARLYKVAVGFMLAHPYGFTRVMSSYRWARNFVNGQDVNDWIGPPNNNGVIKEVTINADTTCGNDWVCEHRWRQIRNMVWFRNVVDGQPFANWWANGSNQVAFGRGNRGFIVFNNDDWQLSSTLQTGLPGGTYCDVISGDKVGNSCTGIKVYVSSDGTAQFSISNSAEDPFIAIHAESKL
UniProt P61073, sequence (whole entry, looked up): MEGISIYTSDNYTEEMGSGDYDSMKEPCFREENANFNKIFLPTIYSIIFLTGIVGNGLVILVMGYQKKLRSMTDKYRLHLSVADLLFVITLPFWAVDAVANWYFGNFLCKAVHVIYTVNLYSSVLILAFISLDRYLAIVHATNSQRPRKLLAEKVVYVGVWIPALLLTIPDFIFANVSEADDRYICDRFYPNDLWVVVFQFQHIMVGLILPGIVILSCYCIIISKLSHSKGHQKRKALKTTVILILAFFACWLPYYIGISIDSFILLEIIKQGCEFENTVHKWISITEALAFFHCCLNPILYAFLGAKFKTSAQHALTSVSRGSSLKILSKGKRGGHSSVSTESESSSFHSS
UniProt P43116, sequence (whole entry, looked up): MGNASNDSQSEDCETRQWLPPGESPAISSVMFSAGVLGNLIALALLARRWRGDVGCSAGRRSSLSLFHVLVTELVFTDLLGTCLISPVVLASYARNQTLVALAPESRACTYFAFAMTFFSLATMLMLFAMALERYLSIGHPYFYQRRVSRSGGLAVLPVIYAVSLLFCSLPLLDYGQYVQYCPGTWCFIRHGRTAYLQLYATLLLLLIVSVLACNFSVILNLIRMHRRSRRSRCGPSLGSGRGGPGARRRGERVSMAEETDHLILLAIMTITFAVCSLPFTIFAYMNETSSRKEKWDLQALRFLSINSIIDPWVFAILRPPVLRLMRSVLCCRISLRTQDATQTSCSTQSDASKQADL
UniProt O08967, sequence (whole entry, looked up): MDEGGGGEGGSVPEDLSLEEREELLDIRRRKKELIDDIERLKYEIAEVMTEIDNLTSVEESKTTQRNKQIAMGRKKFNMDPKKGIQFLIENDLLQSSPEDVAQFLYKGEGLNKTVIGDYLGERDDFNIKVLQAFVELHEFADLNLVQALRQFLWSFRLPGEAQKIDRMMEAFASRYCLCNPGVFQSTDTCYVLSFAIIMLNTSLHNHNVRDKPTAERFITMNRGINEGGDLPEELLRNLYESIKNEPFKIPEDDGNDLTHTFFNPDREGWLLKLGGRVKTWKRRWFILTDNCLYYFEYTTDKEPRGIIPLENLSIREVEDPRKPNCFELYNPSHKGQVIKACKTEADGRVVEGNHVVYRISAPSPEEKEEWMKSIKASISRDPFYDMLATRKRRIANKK
UniProt P32745, sequence (whole entry, looked up): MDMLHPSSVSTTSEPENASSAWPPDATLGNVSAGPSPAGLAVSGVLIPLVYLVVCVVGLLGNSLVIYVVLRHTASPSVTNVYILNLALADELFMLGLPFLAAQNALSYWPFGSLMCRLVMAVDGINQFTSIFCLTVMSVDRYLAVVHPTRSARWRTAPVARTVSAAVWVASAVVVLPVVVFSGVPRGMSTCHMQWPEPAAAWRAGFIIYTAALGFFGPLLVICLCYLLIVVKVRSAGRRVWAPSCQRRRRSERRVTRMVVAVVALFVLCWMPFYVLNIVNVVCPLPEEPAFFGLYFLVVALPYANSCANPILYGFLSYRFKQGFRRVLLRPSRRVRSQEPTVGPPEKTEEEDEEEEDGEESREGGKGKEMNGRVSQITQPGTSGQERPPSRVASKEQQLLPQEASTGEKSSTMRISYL
UniProt Q9NTG7, sequence (whole entry, looked up): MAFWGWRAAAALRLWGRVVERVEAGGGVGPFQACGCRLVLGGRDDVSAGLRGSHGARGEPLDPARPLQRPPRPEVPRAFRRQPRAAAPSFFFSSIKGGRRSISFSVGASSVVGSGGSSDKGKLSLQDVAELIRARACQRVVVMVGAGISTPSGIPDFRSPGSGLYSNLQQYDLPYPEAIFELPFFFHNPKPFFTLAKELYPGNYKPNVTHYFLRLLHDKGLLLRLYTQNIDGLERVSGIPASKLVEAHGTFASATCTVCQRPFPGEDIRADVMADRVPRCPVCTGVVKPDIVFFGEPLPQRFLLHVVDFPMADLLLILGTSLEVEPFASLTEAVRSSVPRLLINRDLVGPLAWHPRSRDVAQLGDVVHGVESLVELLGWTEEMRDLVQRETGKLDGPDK
UniProt P23975, sequence (whole entry, looked up): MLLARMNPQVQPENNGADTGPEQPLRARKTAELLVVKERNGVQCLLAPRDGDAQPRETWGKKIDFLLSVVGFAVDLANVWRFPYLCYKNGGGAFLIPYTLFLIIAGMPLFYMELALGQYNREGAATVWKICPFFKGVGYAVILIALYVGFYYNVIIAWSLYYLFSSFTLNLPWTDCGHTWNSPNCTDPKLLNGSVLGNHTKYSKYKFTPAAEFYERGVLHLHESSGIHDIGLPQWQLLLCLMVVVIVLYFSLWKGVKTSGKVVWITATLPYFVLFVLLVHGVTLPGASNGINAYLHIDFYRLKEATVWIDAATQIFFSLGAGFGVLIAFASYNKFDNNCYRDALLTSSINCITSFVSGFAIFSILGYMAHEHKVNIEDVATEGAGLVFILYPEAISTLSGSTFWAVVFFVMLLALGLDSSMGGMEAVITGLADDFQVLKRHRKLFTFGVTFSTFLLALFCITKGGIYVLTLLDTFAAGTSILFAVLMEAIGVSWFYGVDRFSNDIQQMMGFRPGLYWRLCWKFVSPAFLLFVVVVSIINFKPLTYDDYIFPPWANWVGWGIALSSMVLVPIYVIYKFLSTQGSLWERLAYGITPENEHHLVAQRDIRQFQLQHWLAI
UniProt Q86X55, sequence (whole entry, looked up): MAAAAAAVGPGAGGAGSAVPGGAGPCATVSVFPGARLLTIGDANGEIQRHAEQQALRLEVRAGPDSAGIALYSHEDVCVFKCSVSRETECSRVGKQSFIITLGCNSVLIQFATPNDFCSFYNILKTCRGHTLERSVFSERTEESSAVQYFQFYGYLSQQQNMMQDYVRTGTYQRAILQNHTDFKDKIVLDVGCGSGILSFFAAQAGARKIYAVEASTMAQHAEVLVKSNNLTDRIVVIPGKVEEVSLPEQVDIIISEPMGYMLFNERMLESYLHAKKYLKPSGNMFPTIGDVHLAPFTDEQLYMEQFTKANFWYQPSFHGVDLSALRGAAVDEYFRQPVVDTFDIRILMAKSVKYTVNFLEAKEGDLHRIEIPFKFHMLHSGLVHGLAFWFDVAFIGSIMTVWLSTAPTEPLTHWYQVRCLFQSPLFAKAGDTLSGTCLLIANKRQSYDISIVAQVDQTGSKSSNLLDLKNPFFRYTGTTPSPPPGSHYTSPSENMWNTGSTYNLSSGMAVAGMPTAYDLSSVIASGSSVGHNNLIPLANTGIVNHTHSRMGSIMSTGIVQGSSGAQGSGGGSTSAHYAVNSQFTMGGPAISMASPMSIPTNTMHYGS
UniProt O15151, sequence (whole entry, looked up): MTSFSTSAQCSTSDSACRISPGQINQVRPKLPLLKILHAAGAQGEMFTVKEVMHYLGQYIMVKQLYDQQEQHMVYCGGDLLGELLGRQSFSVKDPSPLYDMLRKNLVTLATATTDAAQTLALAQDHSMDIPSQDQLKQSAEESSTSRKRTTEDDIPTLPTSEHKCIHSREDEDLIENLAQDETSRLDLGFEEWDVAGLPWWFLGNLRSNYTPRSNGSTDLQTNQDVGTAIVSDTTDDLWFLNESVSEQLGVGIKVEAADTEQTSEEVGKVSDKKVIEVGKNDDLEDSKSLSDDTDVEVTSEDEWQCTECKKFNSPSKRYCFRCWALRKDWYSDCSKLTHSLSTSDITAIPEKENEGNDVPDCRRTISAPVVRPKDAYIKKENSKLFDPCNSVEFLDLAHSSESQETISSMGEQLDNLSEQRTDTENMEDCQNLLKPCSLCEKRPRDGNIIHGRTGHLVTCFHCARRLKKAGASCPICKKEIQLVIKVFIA

| SMILES | tested on | assay | test system | setting | scale | measurement | value |
| --- | --- | --- | --- | --- | --- | --- | --- |
| CCCCCCCCCCCCNC(=S)NCCCC[C@H](NC(=O)OCc1ccccc1)C(=O)N1CCC[C@H]1C(=O)N[C@@H](CCCNC(=N)N)C(N)=O | SIRT3 (Homo sapiens, UniProt Q9NTG7) | enzyme activity, inhibitor |  | 10 µM |  | inhibition | < 5% |
| CC(C)NC(=O)[C@H](CCc1ccccc1)NC(=O)[C@H](CC(=O)NCC(C)(C)C)NC(=O)CCc1ccccc1 | Prothrombin (F2, Homo sapiens, UniProt P00734) | enzyme activity, inhibitor |  | 100 µM |  | inhibition | 9% |
| COC1CN([C@H]2CC[C@H]([C@@]3(C)Oc4c(Cl)cc(C(=O)NCc5c(SC)cc(C)[nH]c5=O)c(C)c4O3)CC2)C1 |  | RNA-seq, measured: SLC9A3R2 | human, whole blood | dose not given, 24 h | relative to: pretreatment baseline | log2 fold change | 1.4 |
| Cc1ccc(CNC(=O)C(CCc2ccccc2)NC(=O)C(NC(=O)c2ccc(OCc3ccc(C(C)(C)C)cc3)cc2)C(C)O)cc1 (centres unmarked) | chymotrypsin | enzyme activity, inhibitor |  | 100 µM |  | inhibition | -8% |
| CN(C)CCCCCCNc1nc(NCCCCCN(C)C)nc2ccc(NC(=O)CCl)cc12 | Histone-lysine N-methyltransferase SETDB1, triple Tudor domain (SETDB1, Homo sapiens, UniProt Q15047) |  |  | 0.412 µM |  | inhibition | 30.1% |
| C=C(NC(=O)[C@H](CCCCNC(=S)NCCCCCCCCCCCC)NC(=O)OCc1ccccc1)C(=O)N[C@@H](CCCNC(=N)N)C(N)=O | SIRT1 | enzyme activity, inhibitor |  | 1 µM |  | inhibition | 77% |
| N=C(N)NCCCC(NC(=O)C(CC(=O)NO)Cc1ccc2ccccc2c1)C(=O)NC(Cc1c[nH]c2ccccc12)C(=O)NC(CCC(=O)O)C(N)=O (centres unmarked) | DPP4 (Homo sapiens, UniProt P27487) |  |  | 1 µM |  | inhibition | -3% |
| O=[N+]([O-])c1ccc(Cn2cc(Cn3cc(CO)nn3)nn2)cc1 | Cytohesin-3, PH domain (Cyth3, Mus musculus, UniProt O08967) | PIP3 binding to PH domain, SPR |  | 50 µM |  | inhibition | 64 ± 8% |
| CC(C)Cn1c(SCC(=O)N2CCc3ccccc3C2)nc2cc(Cl)ccc2c1=O | SLC6A2 (Homo sapiens, UniProt P23975) | ligand displacement, radioligand |  | 10 µM |  | inhibition | 12% |
| CC(=O)N[C@H](C(=O)N[C@@H](CO)C(=O)N[C@@H](Cc1ccccc1)C(=O)N[C@H]1CCCCNC(=N)NCCCN(C)CCCNC(=N)NCCCC[C@@H](C(=O)N2CCC[C@H]2C(N)=O)NC(=O)[C@H](CC(C)C)NC(=O)[C@H](CC(C)C)NC(=O)[C@H](C)NC(=O)[C@H](Cc2c[nH]c3ccccc23)NC(=O)[C@H](Cc2ccc(O)cc2)NC(=O)[C@H](CCC(=O)O)NC1=O)[C@@H](C)O | Protein Mdm4 (MDM4, Homo sapiens, UniProt O15151) | protein-protein interaction, inhibitor, TR-FRET |  | 0.1 µM |  | inhibition | 96% |
| C/C=C/C(=O)Nc1ccc2nc(NCCCCCN(C)C)nc(NCCCCCCN(C)C)c2c1 | CARM1 (Homo sapiens, UniProt Q86X55) | enzyme activity, inhibitor, radiometric |  | 50 µM |  | inhibition | 78% |
| CCOC(=O)C12CC1C(n1cnc3c(NC)nc(C#Cc4ccc(Br)s4)nc31)C(O)C2O (centres unmarked) | SLC6A3 (Homo sapiens, UniProt Q01959) | ligand displacement, radioligand |  | 10 µM |  | inhibition | -480% |
| Cc1ccc(N(O)/N=N/c2ccc(S(=O)(=O)Nc3nccs3)cc2)cc1 | AMY2 | enzyme activity, inhibitor |  | 300 µg/mL |  | inhibition | 47.4% |
| O=c1cc(-c2ccccc2)oc2c(Br)c(O)c(O)c(O)c12 | AMY2 | enzyme activity, inhibitor |  | 50 µM, with: CNP-G3 substrate |  | inhibition | 0% |
| C[Si](C)(C)C[C@@H](CN)CC(=O)O | SSTR3 (Homo sapiens, UniProt P32745) | ligand displacement, radioligand |  | 75 µM |  | inhibition | -4% |
| Cc1ccc(CNC(=O)[C@H](CCc2ccccc2)NC(=O)[C@H](CC(=O)NCC(C)(C)C)NC(=O)c2ccc(OCc3ccccc3)cc2)cc1 | trypsin | enzyme activity, inhibitor |  | 100 µM |  | inhibition | 3% |
| COc1ccccc1N1CCN(c2nc(Nc3ccc(C)cc3C)c3nccnc3n2)CC1 | CXCR4 (Homo sapiens, UniProt P61073) | arrestin recruitment, DiscoverX arrestin |  | 30 µM |  | inhibition | 35% and 66% |
| O=C(NC1CCC1)[C@H](Cc1c[nH]c2ccccc12)NC(=O)[C@H](CCCCNC(=S)NCCc1noc(=O)[nH]1)NS(=O)(=O)c1cccc(F)c1 | SIRT1 | enzyme activity, inhibitor |  | 1 µM |  | inhibition | 4% |
| Cc1ncsc1-c1ccc(C(C)NC(=O)C2CC(O)CN2C(=O)C(NC(=O)CCCCCCCCCCN2CCCC(Nc3ncc(Cl)c(Nc4ccccc4S(=O)(=O)C(C)C)n3)C2)C(C)(C)C)cc1 (centres unmarked) | 22Rv1 | RNA-seq, measured: ZSWIM3 mRNA |  | concentration not given | relative to: DMSO | log2 fold change | -2.55 |
| O=C1c2sc(-c3ccc(N4CCC(F)C4)nc3F)nc2CCN1c1cccnc1 (centres unmarked) | PTGER2 (Homo sapiens, UniProt P43116) | ligand displacement, radioligand |  | 1 µM |  | inhibition | 1% |

A few entries again:
| SMILES | tested on | assay | test system | setting | scale | measurement | value |
| --- | --- | --- | --- | --- | --- | --- | --- |
| C[Si](C)(C)C[C@@H](CN)CC(=O)O | SSTR3 (Homo sapiens, UniProt P32745) | ligand displacement, radioligand |  | 75 µM |  | inhibition | -4% |
| Cc1ccc(CNC(=O)[C@H](CCc2ccccc2)NC(=O)[C@H](CC(=O)NCC(C)(C)C)NC(=O)c2ccc(OCc3ccccc3)cc2)cc1 | trypsin | enzyme activity, inhibitor |  | 100 µM |  | inhibition | 3% |
| COc1ccccc1N1CCN(c2nc(Nc3ccc(C)cc3C)c3nccnc3n2)CC1 | CXCR4 (Homo sapiens, UniProt P61073) | arrestin recruitment, DiscoverX arrestin |  | 30 µM |  | inhibition | 35% and 66% |
